Results from different studies.
Compare with care: the assays were run in different laboratories. ± gives the spread as reported.

Compound | assay | system | conditions | quantity | value
Cc1nc(-c2ccc(OCC(C)C)c(C#N)c2)sc1C(=O)O | – | pediatric patients, plasma | oral, 40 mg once daily, fed, PopPK post hoc, weight at least 40 kg | Tmax at steady state | 1.35 ± 0.51 h
C=C(C)[C@@H]1CC[C@]2(NCCN3CCS(=O)(=O)CC3)CC[C@]3(C)[C@H](CC[C@@H]4[C@@]5(C)CC=C(C6=CC[C@@](CF)(C(=O)O)CC6)C(C)(C)[C@@H]5CC[C@]43C)[C@@H]12 | – | HIV-1-positive treatment-naive adults, plasma | oral, 10 mg single dose, day 1, with food | tmax | 2.93 h
CC[C@H](C)[C@H](NC(=O)[C@H](Cc1ccccc1)NC(=O)[C@H](CCC(=O)O)NC(=O)[C@H](CCCCNC(=O)COCCOCCNC(=O)COCCOCCNC(=O)CC[C@H](NC(=O)CCCCCCCCCCCCCCCCC(=O)O)C(=O)O)NC(=O)[C@H](C)NC(=O)[C@H](C)NC(=O)[C@H](CCC(N)=O)NC(=O)CNC(=O)[C@H](CCC(=O)O)NC(=O)[C@H](CC(C)C)NC(=O)[C@H](Cc1ccc(O)cc1)NC(=O)[C@H](CO)NC(=O)[C@H](CO)NC(=O)[C@@H](NC(=O)[C@H](CC(=O)O)NC(=O)[C@H](CO)NC(=O)[C@@H](NC(=O)[C@H](Cc1ccccc1)NC(=O)[C@@H](NC(=O)CNC(=O)[C@H](CCC(=O)O)NC(=O)C(C)(C)NC(=O)[C@@H](N)Cc1cnc[nH]1)[C@@H](C)O)[C@@H](C)O)C(C)C)C(=O)N[C@@H](C)C(=O)N[C@@H](Cc1c[nH]c2ccccc12)C(=O)N[C@@H](CC(C)C)C(=O)N[C@H](C(=O)N[C@@H](CCCNC(=N)N)C(=O)NCC(=O)N[C@@H](CCCNC(=N)N)C(=O)NCC(=O)O)C(C)C | LC-MS/MS | healthy fasting men, plasma | oral, 10 mg, taken with 240 mL water | tmax | 1.5 h
CC[C@H](C)[C@H](NC(=O)[C@H](Cc1ccccc1)NC(=O)[C@H](CCC(=O)O)NC(=O)[C@H](CCCCNC(=O)COCCOCCNC(=O)COCCOCCNC(=O)CC[C@H](NC(=O)CCCCCCCCCCCCCCCCC(=O)O)C(=O)O)NC(=O)[C@H](C)NC(=O)[C@H](C)NC(=O)[C@H](CCC(N)=O)NC(=O)CNC(=O)[C@H](CCC(=O)O)NC(=O)[C@H](CC(C)C)NC(=O)[C@H](Cc1ccc(O)cc1)NC(=O)[C@H](CO)NC(=O)[C@H](CO)NC(=O)[C@@H](NC(=O)[C@H](CC(=O)O)NC(=O)[C@H](CO)NC(=O)[C@@H](NC(=O)[C@H](Cc1ccccc1)NC(=O)[C@@H](NC(=O)CNC(=O)[C@H](CCC(=O)O)NC(=O)C(C)(C)NC(=O)[C@@H](N)Cc1cnc[nH]1)[C@@H](C)O)[C@@H](C)O)C(C)C)C(=O)N[C@@H](C)C(=O)N[C@@H](Cc1c[nH]c2ccccc12)C(=O)N[C@@H](CC(C)C)C(=O)N[C@H](C(=O)N[C@@H](CCCNC(=N)N)C(=O)NCC(=O)N[C@@H](CCCNC(=N)N)C(=O)NCC(=O)O)C(C)C | – | Caucasian subjects | subcutaneous once weekly, 1.0 mg, median | tmax at steady state | 30 h
CC1=C2C[C@H]3[C@@H](CC[C@@H]4C[C@H](NS(C)(=O)=O)CC[C@@]43C)[C@@H]2CC[C@@]2(C1)O[C@@H]1C[C@H](C)CN[C@H]1[C@H]2C | – | patients, plasma | oral, 130 mg single, day -7, cycle 1 | Tmax | 6.44 h
CS(=O)(=O)n1cc2c(n1)CN([C@H]1CO[C@H](c3cc(F)ccc3F)[C@@H](N)C1)C2 | – | healthy Japanese men, plasma | oral, 50 mg once weekly, day 1 | Tmax | 1.58 h
Cc1ccc(NC(=O)c2ccc(CN3CCN(C)CC3)cc2)cc1Nc1nccc(-c2cncc(-c3oncc3C)c2)n1 | – | Parkinson's disease patients, plasma | oral, 100 mg once daily, day 1, 7-day dosing, mean | Tmax | 4.79 h
COc1cc(OC)c(/C=C/S(=O)(=O)Cc2ccc(OC)c(NCC(=O)O)c2)c(OC)c1 | – | cancer patients, phase I, plasma | oral, 70 mg twice daily, day 1 cycle 1 | Tmax | 1.17 ± 0.29 h
C[C@@H](N)c1cc(Cl)ccc1Cn1c(=S)[nH]c(=O)c2[nH]ccc21 | – | healthy Japanese volunteers, plasma | oral, 2.5 mg once daily, day 1, median | tmax | 1 h

For quick reference, copied from above:
Compound | assay | system | conditions | quantity | value
Cc1nc(-c2ccc(OCC(C)C)c(C#N)c2)sc1C(=O)O | – | pediatric patients, plasma | oral, 40 mg once daily, fed, PopPK post hoc, weight at least 40 kg | Tmax at steady state | 1.35 ± 0.51 h
